Measurements collected from several papers.
Each line is one published result; not all experiments were run side by side. ± gives the spread as reported.
NR1I2: Nuclear receptor subfamily 1 group I member 2 (NR1I2, Homo sapiens, UniProt O75469)
Sequence of UniProt O75469 (whole entry, looked up): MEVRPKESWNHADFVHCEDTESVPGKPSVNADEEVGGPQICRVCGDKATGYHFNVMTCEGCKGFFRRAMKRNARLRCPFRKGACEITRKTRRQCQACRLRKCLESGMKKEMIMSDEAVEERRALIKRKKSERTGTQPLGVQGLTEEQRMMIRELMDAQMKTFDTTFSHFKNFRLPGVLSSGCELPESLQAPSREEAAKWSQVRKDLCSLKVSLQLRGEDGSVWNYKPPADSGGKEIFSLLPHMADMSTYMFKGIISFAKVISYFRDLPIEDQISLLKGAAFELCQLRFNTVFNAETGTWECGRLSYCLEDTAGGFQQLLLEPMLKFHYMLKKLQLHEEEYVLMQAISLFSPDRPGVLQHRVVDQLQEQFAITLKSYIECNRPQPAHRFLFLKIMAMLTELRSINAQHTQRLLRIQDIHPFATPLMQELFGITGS
CYP2A6: Cytochrome P450 2A6 (CYP2A6, Homo sapiens, UniProt P11509)
Sequence of UniProt P11509 (whole entry, looked up): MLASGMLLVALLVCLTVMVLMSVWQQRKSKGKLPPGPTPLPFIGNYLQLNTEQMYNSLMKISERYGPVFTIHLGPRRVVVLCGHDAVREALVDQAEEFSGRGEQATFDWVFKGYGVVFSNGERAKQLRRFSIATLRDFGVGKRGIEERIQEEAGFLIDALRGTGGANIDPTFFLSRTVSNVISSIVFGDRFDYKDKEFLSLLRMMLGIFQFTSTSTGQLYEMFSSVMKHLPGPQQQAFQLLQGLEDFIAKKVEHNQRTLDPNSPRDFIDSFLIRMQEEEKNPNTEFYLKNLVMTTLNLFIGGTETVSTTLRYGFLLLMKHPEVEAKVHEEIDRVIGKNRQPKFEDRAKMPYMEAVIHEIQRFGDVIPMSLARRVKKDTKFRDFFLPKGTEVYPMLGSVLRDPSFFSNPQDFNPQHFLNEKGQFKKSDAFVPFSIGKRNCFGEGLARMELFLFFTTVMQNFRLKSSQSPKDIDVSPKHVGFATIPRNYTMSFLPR
Sequence of UniProt P05182 (whole entry, looked up): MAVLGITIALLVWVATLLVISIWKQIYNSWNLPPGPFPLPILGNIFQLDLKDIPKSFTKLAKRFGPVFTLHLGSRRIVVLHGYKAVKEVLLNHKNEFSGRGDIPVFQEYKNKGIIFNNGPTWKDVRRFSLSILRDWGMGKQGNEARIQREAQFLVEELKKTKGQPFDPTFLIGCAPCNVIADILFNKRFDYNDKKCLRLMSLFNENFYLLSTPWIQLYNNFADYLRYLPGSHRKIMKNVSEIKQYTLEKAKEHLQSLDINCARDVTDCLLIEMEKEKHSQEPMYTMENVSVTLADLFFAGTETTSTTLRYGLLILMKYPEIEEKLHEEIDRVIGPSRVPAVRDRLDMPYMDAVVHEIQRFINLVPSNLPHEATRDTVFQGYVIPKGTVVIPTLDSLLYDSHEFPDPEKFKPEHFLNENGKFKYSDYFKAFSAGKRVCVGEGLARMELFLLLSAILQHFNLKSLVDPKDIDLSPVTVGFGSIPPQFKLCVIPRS
Sequence of UniProt P41738 (whole entry, looked up): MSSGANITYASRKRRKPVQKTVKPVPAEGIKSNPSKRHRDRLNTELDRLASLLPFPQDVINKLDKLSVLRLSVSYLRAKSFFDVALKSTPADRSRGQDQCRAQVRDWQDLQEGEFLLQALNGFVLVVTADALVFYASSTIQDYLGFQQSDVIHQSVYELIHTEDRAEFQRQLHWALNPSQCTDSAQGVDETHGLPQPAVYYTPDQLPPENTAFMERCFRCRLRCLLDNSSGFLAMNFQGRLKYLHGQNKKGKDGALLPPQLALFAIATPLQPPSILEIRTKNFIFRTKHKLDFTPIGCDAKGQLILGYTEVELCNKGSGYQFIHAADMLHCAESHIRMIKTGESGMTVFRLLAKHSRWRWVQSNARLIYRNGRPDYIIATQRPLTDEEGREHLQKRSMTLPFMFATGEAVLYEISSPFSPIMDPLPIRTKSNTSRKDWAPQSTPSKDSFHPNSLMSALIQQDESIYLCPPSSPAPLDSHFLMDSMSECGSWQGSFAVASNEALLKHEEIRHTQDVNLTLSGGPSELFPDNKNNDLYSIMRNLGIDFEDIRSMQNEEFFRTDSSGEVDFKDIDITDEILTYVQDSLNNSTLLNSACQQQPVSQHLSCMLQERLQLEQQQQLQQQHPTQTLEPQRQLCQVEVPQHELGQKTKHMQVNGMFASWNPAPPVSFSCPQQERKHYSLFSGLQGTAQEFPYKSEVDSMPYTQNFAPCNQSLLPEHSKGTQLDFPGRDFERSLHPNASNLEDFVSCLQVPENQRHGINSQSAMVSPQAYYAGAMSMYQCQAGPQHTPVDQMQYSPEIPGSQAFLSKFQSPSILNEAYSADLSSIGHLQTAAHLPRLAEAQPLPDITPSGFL
Sequence of UniProt P11712 (whole entry, looked up): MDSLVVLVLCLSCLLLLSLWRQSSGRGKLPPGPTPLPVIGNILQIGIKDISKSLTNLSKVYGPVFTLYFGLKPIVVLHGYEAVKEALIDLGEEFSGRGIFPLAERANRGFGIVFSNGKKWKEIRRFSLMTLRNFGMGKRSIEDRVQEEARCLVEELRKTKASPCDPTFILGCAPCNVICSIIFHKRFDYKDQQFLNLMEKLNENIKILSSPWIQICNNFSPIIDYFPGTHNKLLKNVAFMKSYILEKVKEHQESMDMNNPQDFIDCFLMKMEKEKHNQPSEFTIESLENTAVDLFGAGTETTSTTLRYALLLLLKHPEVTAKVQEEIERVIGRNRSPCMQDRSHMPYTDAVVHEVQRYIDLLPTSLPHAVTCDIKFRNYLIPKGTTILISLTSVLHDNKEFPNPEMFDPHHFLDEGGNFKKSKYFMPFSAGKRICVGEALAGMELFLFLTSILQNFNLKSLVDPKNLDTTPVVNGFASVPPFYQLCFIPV
Sequence of UniProt P14780 (whole entry, looked up): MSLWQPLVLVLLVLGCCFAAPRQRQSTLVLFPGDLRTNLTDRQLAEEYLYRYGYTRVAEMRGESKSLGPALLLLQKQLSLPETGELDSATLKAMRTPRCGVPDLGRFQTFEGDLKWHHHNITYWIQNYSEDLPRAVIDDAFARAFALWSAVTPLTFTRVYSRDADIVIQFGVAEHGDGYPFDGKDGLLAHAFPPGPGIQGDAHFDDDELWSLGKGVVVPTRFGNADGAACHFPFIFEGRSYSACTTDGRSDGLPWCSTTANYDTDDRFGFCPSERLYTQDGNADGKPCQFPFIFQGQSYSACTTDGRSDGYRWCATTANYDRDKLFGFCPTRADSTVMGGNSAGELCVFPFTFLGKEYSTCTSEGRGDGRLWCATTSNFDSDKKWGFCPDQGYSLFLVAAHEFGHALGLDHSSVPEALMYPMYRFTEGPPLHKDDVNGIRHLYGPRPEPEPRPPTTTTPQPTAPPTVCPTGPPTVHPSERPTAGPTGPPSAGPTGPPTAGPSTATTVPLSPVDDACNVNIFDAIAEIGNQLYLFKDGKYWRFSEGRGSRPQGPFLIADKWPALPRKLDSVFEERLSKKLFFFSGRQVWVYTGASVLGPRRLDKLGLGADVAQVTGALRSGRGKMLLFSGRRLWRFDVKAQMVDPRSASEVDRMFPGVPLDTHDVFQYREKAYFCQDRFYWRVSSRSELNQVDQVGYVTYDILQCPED
Sequence of UniProt Q95LD9 (whole entry, looked up): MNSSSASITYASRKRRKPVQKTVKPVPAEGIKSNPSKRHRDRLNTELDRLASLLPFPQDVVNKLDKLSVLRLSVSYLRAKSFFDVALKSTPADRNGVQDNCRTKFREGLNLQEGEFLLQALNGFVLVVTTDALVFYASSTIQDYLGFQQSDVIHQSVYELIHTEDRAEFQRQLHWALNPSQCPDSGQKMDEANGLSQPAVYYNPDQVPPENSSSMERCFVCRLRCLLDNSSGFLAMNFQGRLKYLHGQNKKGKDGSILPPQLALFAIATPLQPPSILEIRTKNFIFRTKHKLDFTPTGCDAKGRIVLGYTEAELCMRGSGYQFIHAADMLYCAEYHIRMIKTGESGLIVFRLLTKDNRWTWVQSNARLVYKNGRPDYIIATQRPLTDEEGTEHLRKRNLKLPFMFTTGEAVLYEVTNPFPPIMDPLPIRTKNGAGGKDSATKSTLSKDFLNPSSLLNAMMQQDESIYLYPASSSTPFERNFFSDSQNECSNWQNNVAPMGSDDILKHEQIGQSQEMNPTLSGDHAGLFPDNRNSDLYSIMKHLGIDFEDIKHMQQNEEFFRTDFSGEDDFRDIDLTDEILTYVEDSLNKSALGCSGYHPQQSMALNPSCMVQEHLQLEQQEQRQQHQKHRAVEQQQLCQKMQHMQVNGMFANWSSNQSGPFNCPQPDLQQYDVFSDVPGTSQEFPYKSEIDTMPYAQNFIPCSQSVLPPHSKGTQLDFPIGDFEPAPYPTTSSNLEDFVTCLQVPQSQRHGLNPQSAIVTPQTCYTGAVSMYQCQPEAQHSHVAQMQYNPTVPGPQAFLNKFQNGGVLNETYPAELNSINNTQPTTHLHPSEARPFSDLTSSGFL

Molecule = O=C1Cc2cc(CCN3CCN(c4nsc5ccccc45)CC3)c(Cl)cc2N1; target = Cytochrome P450 2C9 (CYP2C9, Homo sapiens, UniProt P11712); assay = inhibitor; test system = human liver microsomes; conditions = 2 µM, pH 7.4, together with: diclofenac; endpoint = inhibition; result = 3.68%
Molecule = O=c1cc(-c2ccccc2)oc2ccc3ccccc3c12; target = PXR (polar bear); assay = reporter gene, agonist, luciferase; test system = COS-7; conditions = 24 h; how to read = reference: DMSO; endpoint = fold induction; result = 2.1 ± 0.4 fold
Molecule = CCC1(c2ccccc2)NC(=O)N(Cc2ccccc2)C1=O (single isomer, unassigned; (+)); target = CYP (human); assay = THC M4 formation, inhibitor; test system = human liver microsomes; conditions = 5 µM, together with: THC 2 µM; endpoint = inhibition; result = no inhibition
Molecule = Clc1ccc(-c2cc(Cl)c(Cl)cc2Cl)cc1Cl; target = NR1I2; assay = reporter gene, agonist, luciferase; test system = COS-7; conditions = 24 h; how to read = reference: DMSO; endpoint = fold induction; result = 2.4 ± 0.2 fold
Molecule = C#CCOc1ccc2ccccc2c1; target = CYP2A6; assay = binding, absorbance; conditions = pH 7.4; endpoint = Kd; result = 33000 nM
Molecule = C=C(C)[C@@H]1CCC(C)=C[C@H]1c1c(O)cc(CCCCC)cc1O; target = CYP2A6; assay = nicotine demethylation to nornicotine, inhibitor; test system = microsomes of overexpressing HEK293 cells; conditions = 10 µM, 30 min, pH 7.4, together with: nicotine 50 µM; endpoint = inhibition; result = 75%
Molecule = C#CCOCc1cccc2ccccc12; target = CYP2A6; assay = binding, absorbance; conditions = pH 7.4; endpoint = Kd; result = 9300 nM
Molecule = Clc1cc(-c2cc(Cl)c(Cl)c(Cl)c2)cc(Cl)c1Cl; target = Aryl hydrocarbon receptor (AHR, Delphinapterus leucas, UniProt Q95LD9); assay = binding, competitor; conditions = in vitro expressed receptor, together with: [3H]TCDD; endpoint = Ki; result = 7.5 nM
Molecule = N.N.O=C([O-])C1(C(=O)[O-])CCC1.[Pt+2]; target = P-glycoprotein (Canis lupus familiaris, UniProt C0KKU9); assay = rhodamine efflux, inhibitor; test system = MDCK-MDR1 cells; conditions = concentration not given, together with: rhodamine 123 1 µM; how to read = reference: rhodamine alone; endpoint = rhodamine fluorescence ratio; result = 1.1
Molecule = CC(C)C=Cc1c(O)cc(/C=C/c2ccc(O)c(O)c2)cc1O; target = UGT1A7 human recombinant; assay = substrate, refers to: 3-glucuronide; conditions = pH 7.4; endpoint = Km; result = 54.4 ± 4.5 µM
Molecule = Clc1cc(Cl)c(-c2cccc(Cl)c2Cl)cc1Cl; target = PXR (polar bear); assay = reporter gene, agonist, luciferase; test system = COS-7; conditions = 24 h; how to read = reference: DMSO; endpoint = fold induction; result = 2.7 ± 0.6 fold
Molecule = indolo[3,2-b]carbazole; target = Aryl hydrocarbon receptor (Ahr, Rattus norvegicus, UniProt P41738); assay = reporter gene, activator; test system = H4L7.5c2 (rat); conditions = 6 h; endpoint = EC50; result = 0.009 nM
Molecule = O=Cc1c2[nH]c3ccccc3c2cc2[nH]c3ccccc3c12; target = CYP1A; assay = EROD activity, inducer; test system = Hepa-1c1c7 (mouse); conditions = 3 h; endpoint = EC50; result = 0.04 ± 0.01 nM
Molecule = CC(C)C[C@H](NC(=O)[C@H](CO)NC(=O)[C@H](CC(C)C)NC(=O)[C@@H]1CCCN1C(=O)CNC(=O)[C@H](Cc1ccccc1)NC(=O)Cc1ccc2ccccc2c1)C(=O)N[C@@H](CCCNC(=N)N)C(=O)N[C@@H](CO)C(=O)N[C@@H](CCCCN)C(=O)O; target = Matrix metalloproteinase-9 (MMP9, Homo sapiens, UniProt P14780); assay = protease stability, substrate, HPLC; conditions = 500 µM, pH 7.5, 37 °C, together with: MMP9 10 U; endpoint = time to complete digestion; result = 8 h
Molecule = Clc1cc(Cl)c(-c2ccc(Cl)c(Cl)c2Cl)cc1Cl; target = NR1I2; assay = reporter gene, agonist, luciferase; test system = COS-7; conditions = 24 h; how to read = reference: DMSO; endpoint = fold induction; result = 1.1 ± 0.1 fold
Molecule = COC(=O)c1ccncc1; target = Cytochrome P450 2E1 (Cyp2e1, Rattus norvegicus, UniProt P05182); assay = enzyme activity, inhibitor; test system = liver microsomes; conditions = 10 min, 37 °C, together with: chlorzoxazone; endpoint = Ki; result = 2500 nM
